Values quoted from earlier work, collected from citations in different studies.
± gives the spread as reported.
Oprd1: Delta-type opioid receptor (Oprd1, Rattus norvegicus, UniProt P33533)

Chains of the proteins cited; added tags and fusions are not shown. Residues count along the entry.
UniProt P33533, whole entry: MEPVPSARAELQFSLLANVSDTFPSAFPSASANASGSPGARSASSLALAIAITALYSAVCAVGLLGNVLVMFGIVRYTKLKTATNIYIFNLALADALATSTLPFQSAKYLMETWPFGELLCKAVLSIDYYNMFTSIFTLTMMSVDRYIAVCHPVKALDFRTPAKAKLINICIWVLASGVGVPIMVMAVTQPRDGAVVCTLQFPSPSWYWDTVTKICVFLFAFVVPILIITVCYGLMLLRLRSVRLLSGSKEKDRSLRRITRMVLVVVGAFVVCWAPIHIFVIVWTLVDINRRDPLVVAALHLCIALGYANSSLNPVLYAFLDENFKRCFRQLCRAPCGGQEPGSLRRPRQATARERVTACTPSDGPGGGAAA
UniProt P28335, whole entry, looked up: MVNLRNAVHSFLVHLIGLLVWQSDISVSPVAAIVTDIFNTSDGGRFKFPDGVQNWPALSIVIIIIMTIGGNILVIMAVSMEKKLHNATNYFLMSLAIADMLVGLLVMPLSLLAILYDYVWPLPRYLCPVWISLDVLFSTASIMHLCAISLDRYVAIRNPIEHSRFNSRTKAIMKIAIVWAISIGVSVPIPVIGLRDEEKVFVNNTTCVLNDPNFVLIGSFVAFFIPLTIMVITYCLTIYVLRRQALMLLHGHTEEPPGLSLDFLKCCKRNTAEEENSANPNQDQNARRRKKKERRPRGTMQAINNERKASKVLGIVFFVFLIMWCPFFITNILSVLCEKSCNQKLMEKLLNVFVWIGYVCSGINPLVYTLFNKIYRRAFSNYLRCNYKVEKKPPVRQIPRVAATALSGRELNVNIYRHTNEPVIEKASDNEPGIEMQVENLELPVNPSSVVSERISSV
UniProt P49720, whole entry, looked up: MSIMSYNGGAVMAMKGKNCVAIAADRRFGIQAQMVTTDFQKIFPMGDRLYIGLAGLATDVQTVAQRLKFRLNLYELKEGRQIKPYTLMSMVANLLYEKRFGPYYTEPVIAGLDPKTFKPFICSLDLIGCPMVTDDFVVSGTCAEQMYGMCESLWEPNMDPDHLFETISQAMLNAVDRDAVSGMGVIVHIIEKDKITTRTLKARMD
UniProt Q99436, whole entry, looked up: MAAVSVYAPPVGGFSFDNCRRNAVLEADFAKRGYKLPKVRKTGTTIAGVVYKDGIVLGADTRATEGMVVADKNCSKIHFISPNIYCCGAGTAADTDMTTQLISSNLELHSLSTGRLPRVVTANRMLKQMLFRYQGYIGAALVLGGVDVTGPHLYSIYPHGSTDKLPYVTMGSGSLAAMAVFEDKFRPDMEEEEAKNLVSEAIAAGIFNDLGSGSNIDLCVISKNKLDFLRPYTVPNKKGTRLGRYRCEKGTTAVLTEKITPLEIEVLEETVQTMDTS
UniProt Q96RJ0, whole entry: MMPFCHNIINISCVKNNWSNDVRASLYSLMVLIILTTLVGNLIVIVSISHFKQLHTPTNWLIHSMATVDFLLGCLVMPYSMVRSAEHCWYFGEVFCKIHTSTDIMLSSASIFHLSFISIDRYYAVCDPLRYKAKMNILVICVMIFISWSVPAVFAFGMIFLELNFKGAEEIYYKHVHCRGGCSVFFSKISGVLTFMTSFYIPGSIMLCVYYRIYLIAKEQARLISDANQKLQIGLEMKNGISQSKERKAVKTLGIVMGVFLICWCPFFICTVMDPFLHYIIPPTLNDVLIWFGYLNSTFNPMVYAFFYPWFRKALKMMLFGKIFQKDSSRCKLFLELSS
UniProt P42866, whole entry: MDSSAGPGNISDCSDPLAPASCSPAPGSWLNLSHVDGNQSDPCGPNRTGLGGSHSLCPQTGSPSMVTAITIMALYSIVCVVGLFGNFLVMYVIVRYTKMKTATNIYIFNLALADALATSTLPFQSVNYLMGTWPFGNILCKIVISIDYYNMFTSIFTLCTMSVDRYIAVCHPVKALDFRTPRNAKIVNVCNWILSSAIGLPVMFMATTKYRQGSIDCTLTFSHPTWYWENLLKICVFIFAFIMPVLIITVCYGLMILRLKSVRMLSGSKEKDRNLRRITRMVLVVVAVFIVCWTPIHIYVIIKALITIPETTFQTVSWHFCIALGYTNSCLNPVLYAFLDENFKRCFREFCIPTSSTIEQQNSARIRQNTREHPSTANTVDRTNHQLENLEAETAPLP
UniProt Q8VSX2, 1-224: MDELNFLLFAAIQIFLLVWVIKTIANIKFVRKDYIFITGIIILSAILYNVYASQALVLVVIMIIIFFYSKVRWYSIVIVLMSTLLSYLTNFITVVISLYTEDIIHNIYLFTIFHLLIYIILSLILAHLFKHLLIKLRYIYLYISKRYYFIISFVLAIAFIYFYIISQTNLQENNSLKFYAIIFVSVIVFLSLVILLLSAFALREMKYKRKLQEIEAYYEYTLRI
UniProt P31645, whole entry: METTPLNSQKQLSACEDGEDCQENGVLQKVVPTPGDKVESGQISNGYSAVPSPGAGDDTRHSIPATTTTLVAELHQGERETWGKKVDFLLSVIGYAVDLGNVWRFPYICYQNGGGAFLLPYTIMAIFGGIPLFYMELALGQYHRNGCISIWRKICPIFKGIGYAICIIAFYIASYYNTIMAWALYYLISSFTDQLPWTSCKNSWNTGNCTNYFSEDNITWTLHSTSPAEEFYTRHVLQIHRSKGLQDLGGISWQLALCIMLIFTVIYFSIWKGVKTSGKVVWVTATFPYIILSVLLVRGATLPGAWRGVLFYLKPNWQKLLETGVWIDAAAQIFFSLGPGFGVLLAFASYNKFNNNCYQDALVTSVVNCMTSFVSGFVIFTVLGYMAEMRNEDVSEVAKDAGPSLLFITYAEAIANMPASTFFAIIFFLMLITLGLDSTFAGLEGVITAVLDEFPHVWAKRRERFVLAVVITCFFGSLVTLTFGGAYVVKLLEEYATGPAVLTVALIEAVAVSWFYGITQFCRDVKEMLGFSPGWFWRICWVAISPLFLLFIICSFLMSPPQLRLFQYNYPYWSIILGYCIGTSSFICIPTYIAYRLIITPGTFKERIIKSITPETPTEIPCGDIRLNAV
UniProt P62942, 2-108 limits assumed: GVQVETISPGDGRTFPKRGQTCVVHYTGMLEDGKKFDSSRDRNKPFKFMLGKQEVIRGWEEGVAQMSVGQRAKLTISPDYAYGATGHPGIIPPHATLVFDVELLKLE
UniProt Q99808, 2-456 limits assumed: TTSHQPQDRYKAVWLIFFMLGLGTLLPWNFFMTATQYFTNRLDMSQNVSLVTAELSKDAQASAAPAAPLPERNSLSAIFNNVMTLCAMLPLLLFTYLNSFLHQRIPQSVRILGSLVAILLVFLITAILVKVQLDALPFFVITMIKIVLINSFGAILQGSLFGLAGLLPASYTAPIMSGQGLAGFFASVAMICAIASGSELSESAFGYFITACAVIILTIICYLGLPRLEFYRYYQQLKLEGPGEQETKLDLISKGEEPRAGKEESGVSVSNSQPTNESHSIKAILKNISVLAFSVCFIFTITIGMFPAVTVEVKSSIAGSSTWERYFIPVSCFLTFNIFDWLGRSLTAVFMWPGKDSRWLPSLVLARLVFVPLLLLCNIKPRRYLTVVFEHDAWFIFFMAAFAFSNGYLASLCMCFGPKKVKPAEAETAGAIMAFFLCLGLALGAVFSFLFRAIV
UniProt P25084, whole entry: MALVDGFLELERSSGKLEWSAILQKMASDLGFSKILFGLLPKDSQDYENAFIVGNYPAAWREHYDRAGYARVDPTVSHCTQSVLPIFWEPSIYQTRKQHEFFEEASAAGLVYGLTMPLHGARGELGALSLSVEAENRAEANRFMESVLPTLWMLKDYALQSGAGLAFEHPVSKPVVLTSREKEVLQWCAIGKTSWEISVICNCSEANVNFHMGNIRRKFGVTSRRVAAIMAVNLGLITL
UniProt A0A0H2V7F6, 25-182 limits assumed: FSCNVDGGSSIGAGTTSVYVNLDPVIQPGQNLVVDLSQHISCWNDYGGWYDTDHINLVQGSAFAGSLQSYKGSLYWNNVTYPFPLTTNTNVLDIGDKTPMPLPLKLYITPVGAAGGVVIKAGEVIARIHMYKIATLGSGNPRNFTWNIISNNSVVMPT
UniProt P35372, whole entry: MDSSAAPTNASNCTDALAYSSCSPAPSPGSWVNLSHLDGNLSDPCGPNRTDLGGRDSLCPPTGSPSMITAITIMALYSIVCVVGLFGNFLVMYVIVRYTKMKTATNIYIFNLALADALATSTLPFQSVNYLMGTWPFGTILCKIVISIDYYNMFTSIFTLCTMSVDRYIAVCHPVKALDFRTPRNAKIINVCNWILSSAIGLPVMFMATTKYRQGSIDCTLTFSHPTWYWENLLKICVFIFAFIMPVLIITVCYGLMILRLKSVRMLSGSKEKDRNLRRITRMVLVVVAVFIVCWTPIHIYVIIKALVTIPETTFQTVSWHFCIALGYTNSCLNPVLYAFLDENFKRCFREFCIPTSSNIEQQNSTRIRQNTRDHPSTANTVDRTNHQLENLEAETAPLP

Compound | target or system | test | system | setting | measurement | value
N[C@@H](Cc1ccc(C(=O)NCCc2ccc(-c3ccccc3)cc2)cc1)C(=O)N1Cc2ccccc2C[C@H]1C(=O)O | Oprd1 | radioligand binding | rat brain membranes | with: [3H]DSLET | Ki | 0.646 ± 0.088 nM
NCCNCCSc1ccccc1 |  |  | plasma | 100 µg/mL, 30 days, -20 °C | long-term stability | 96.03 ± 0.56 % remaining
c1ccc2c[n+](CCCCCCCC[n+]3ccc4ccccc4c3)ccc2c1 | ACHN | cytotoxicity, MTT |  |  | IC50 | 1050 µM
COc1ccc(CNC(=O)c2ccccc2CNCc2ccc3c(c2C(=O)O)OCO3)cc1 | Gag-Pol polyprotein, integrase (gag-pol, Human immunodeficiency virus 1, UniProt P12497, C1203S/F1286D/F1332H) | binding, surface plasmon resonance |  |  | Kd | > 2 mM
OC[C@@]12C[C@@H]1[C@@H](n1cnc3c(NC(C4CC4)C4CC4)nc(Cl)nc31)[C@H](O)[C@@H]2O | HTR2C (Homo sapiens, UniProt P28335) |  |  | with: [3H]mesulergine | Ki | 83.5 nM
CCC(=O)Nc1c(NC[C@H](O)[C@H](O)[C@H](O)CO)[nH]c(=O)[nH]c1=O | Bacillus subtilis lumazine synthase | inhibitor |  | pH 7.0 | Ki | 20000 ± 4000 nM
CC(=O)N1CCC[C@@H]1C(=O)N[C@@H](C)C(=O)N[C@@H](Cc1ccccc1)B(O)O | Proteasome subunit beta type-3/PSMB7, trypsin-like site (Homo sapiens, UniProt P49720+Q99436) | β2c activity, inhibitor |  | with: Ac-WLR-AMC substrate | IC50 | > 10 µM
CCCCCCCCCCCCNC(=O)N[C@H](C(=O)N[C@H]1/C=C/CCNC(=O)/C=C/[C@H](C)NC1=O)C(C)C | constitutive proteasome trypsin-like site | enzyme activity, inhibitor | purified proteasome |  | Ki | 194 nM
N#Cc1c(C(F)(F)F)cc(-c2ccncc2)nc1SCC(=O)Nc1ncco1 | TAAR1 (Homo sapiens, UniProt Q96RJ0) | antagonist |  |  | IC50 | 9 µM
N[C@@H](Cc1ccc(O)cc1)C(=O)N1Cc2ccccc2C[C@H]1CN[C@@H](CC1CCCCC1)C(=O)N[C@@H](Cc1ccccc1)C(=O)O | Oprd1 |  |  |  | Ki | 0.259 ± 0.047 nM
COc1cc(C(=O)N[C@@H]2CC[C@@]3(O)[C@H]4Cc5ccc(O)c6c5[C@@]3(CCN4CC3CC3)[C@H]2O6)ccn1 | Oprm1 (Mus musculus, UniProt P42866) | radioligand binding | CHO | with: [3H]naloxone | Ki | 0.6 ± 0.23 nM
C[C@H](N)C(=O)N[C@@H](CO)C(=O)N[C@@H](C)C(=O)N[C@H]1CSC(=O)[C@H](Cc2ccccc2)NC(=O)[C@H](Cc2ccc(O)cc2)NC(=O)[C@H](C)NC(=O)[C@H](C)NC1=O | Accessory gene regulator protein C (Staphylococcus epidermidis, UniProt Q8VSX2) | antagonist, reporter strain |  |  | IC50 | 0.00087 µM
Cc1cc(O)cc(C)c1C[C@@H]1NC[C@H](CCCCN)NC(=O)[C@H](Cc2ccccc2)NC(=O)[C@@H](CCCNC(=N)N)NC1=O | Oprd1 |  |  |  | Ki | 422 ± 107 nM
COC(=O)C1=C(c2ccc(F)cc2)CC2CCC1S2 (racemic) | SLC6A4 (Homo sapiens, UniProt P31645) | inhibitor |  |  | IC50 | > 10 µM
COc1ccc(CC[C@H]2OC(=O)[C@@H]3CCCCN3C(=O)C(=O)C(C)(C)COC(=O)C=CCCN(C)C(=O)[C@H](CC(C)C)N(C)C(=O)[C@H]3CCCN3C(=O)[C@H](Cc3ccccc3)N(C)C(=O)C(c3ccccc3)NC(=O)CCC(=O)Nc3cccc2c3)cc1OC (stereo partly shown) | FKBP1A/SLC29A1 (Homo sapiens, UniProt P62942+Q99808) | adenosine uptake, inhibitor |  |  | IC50 | 0.005 µM
O=C(Oc1c(Br)cc(Br)cc1CNC(=O)c1ccccc1[N+](=O)[O-])c1ccccc1Cl | lasR (Pseudomonas aeruginosa, UniProt P25084) | agonist |  |  | EC50 | 71 nM
CC(=O)N[C@H]1[C@H](Oc2ccccc2-c2cccc(C(=O)O)c2)O[C@H](CO)[C@H](O)[C@@H]1O | ydeQ (Escherichia coli, UniProt A0A0H2V7F6) | ELISA |  |  | IC50 | 0.64 µM
c1ccc2c(c1)ccc[n+]2CCCCCCCCCC[n+]1cccc2ccccc21 |  |  | rat | intramuscular, 24 h | LD50 | 45.3 mg/kg
Ic1ccc(CSCn2ccnc2)cc1 | OPRM1 (Homo sapiens, UniProt P35372) |  |  |  | Ki | > 10000 nM

For quick reference, copied from above:
Compound | target or system | test | system | setting | measurement | value
N#Cc1c(C(F)(F)F)cc(-c2ccncc2)nc1SCC(=O)Nc1ncco1 | TAAR1 (Homo sapiens, UniProt Q96RJ0) | antagonist |  |  | IC50 | 9 µM
